Assay results of several laboratories.
A part holds a random share of what one study measured.

Block 1
Target: Interferon regulatory factor 5, full length, phosphomimetic (IRF5, Homo sapiens, UniProt Q13568-2, residues 1-514, K96S/S451D/S453D/S456D/S462D)
Technique: protein-binding microarray
Form: double-stranded DNA, one strand shown
Sample: in vitro
Tested at: 250 nM
Notes: 60-bp whole probe
With: salmon DNA 0.4 mg/ml
Relative to: random background probes
Reading: higher = stronger binding
Oligonucleotide	log fluorescence
GCCTAGCACTTAGATTTCAGTTTTGATTAGTGCTAGGTCTTGATTCGCTTGACGCTGCTG	3.48 z-score
GCCTAGCACTTAGGTTTCGACTTTCGGTAAGTGCTAGTCTTGATTCGCTTGACGCTGCTG	9.97 z-score
GCCTAGCACTTAGGTTTCGGCATCGGTTAGTGCTAGGTCTTGATTCGCTTGACGCTGCTG	7.75 z-score

Block 2
Target: Sal-like protein 4, full length isoform A (SALL4, Homo sapiens, UniProt Q9UJQ4, residues 1-1053)
Sequence of UniProt Q9UJQ4 (whole entry, looked up): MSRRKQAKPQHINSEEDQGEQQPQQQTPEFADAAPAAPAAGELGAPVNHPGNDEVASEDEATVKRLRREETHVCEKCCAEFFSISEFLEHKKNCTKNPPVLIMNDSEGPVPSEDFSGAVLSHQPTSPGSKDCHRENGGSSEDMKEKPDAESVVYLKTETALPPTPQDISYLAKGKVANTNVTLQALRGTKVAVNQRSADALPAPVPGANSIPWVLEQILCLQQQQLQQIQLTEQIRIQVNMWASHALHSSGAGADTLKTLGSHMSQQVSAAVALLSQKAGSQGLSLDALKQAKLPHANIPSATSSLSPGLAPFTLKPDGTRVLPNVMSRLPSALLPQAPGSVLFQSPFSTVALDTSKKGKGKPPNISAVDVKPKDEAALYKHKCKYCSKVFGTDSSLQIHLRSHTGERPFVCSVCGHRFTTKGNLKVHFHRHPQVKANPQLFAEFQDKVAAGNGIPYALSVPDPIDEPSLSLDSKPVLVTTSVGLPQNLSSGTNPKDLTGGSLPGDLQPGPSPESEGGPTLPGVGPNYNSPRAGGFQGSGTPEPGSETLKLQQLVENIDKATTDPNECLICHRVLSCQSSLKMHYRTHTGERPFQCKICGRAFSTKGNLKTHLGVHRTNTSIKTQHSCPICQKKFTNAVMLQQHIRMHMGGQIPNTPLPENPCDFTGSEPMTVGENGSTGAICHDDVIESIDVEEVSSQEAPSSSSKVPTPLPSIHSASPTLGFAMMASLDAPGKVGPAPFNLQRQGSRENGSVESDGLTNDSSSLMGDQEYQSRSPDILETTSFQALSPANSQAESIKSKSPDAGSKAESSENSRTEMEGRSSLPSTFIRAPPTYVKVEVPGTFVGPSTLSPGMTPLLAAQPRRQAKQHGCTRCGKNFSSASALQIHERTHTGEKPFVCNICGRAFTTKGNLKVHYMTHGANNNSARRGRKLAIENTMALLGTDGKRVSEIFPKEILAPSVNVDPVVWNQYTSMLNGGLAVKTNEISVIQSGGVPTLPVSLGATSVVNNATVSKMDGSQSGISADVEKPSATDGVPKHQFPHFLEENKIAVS
Technique: universal PBM
Form: double-stranded DNA, one strand shown
Sample: in vitro
Tested at: 600 nM
Notes: 8-mer, flanks averaged, mean of replicates
Reading: higher = stronger binding
Oligonucleotide	E-score
CCCCAGGG	-0.405
CCGAACGG	-0.338
ACAGTATA	0.225
AACTAGTT	0.227
CATCGTAC	0.177

Block 3
Target: RNA binding protein fox-1 homolog 2, RRM domain, GST-SBP tag (RBFOX2, Homo sapiens, UniProt O43251-10, residues 100-194)
Technique: RNA Bind-n-Seq
Form: RNA
Sample: in vitro
Tested at: 365 nM
Notes: natural RNA segment, single round, ends assumed
Relative to: no-protein control
Reading: higher = stronger binding
All sequences stand within: GGGAGUUCUACAGUCCGACGAUC … UGGAAUUCUCGGGUGCCAA
Construct (chain): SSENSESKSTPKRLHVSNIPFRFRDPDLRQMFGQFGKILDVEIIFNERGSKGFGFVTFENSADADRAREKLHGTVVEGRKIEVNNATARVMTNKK
Oligonucleotide	RBNS enrichment (R)
UGCCUCGCUGGCUUCCUCCUUUUCACACACUCCAAUACUUUAAUGCAUGGAACAGGUCUGCCUAUGUGUAGUGUGGGUGUCCACUUCAGCCUAGUGUAGAGGACCUCUCG	2.03
CCGCGGGUCCUGUUUCCUUACUGGGGAUUUCAGGGCUGGGGGUUCAGGGAGCAUUUCCUUUUCCUGGGAGUUAUGACCGCGAAGUUGUCAUGUGCCGUGCCCUUUUCUGU	0.307
GCGUUGUAGAAGAAGUGAGAUGUAGUAAGCUAAUUAACAGACUUUCUAGCAGUUCUUUUUGUGAUGUCUCUUUGUUAAUCUGAGUCUAUCUAUUUUCGGCAAUAAGGUAA	0.738
GAUCAGAGGUGUGCACCACCACUGCCCAGCUUGAAGUGUGUCAUUUAAAACCACUGUUUAAUAACCCUACAGACAUGAAUCUGGAUAAUGCUAGGUAUAAACUUGUGGCA	1.04
UCUUACAACCAAGGUAGUUUGUAUCAUUUUCAAAAGUACACAUUAUUAGGGUCUAGUUGCCCCUGGUCCUUAGCUUGCUCAGCUGCAAAAUAAGCGUGCUAAAUUAAAUU	0.239

Single results of other studies
Molecule	target	test	system	setting	scale	measurement	result
PhoQ, residues 284 288 289 292 302 303 SSCLAV	PhoP, residues 12 14 15 18 19 TTLRV (Escherichia coli, UniProt P23836)	Sort-seq, measured: YFP reporter	E. coli	PhoQ-PhoP variant library, with: 10 µM Mg2+	relative to: high Mg2+ state, higher = stronger signaling	fold induction	8.66
